# Results pooled from the literature.
# Protocols differ between the studies behind these lines. Values joined by “and” are separate records of one study, mostly repeats; a detail may differ. Numbers after ± are the reported error.
# U2AF2: U2AF2 148-342 (Homo sapiens, UniProt P26368)
# UniProt P26368, sequence (whole entry, looked up): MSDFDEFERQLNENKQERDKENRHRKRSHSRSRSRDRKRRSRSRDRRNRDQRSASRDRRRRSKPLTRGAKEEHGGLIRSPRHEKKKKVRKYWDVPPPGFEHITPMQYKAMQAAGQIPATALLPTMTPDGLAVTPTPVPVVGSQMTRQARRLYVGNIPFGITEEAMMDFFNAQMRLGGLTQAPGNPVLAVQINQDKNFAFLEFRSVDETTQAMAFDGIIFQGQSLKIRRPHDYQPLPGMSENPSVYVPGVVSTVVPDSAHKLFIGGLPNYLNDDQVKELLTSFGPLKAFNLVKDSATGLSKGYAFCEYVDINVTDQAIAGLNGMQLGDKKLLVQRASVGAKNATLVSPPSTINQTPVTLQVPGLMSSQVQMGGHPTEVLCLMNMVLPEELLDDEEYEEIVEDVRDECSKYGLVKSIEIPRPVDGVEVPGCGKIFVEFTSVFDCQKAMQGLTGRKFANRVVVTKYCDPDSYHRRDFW
# T1: itself; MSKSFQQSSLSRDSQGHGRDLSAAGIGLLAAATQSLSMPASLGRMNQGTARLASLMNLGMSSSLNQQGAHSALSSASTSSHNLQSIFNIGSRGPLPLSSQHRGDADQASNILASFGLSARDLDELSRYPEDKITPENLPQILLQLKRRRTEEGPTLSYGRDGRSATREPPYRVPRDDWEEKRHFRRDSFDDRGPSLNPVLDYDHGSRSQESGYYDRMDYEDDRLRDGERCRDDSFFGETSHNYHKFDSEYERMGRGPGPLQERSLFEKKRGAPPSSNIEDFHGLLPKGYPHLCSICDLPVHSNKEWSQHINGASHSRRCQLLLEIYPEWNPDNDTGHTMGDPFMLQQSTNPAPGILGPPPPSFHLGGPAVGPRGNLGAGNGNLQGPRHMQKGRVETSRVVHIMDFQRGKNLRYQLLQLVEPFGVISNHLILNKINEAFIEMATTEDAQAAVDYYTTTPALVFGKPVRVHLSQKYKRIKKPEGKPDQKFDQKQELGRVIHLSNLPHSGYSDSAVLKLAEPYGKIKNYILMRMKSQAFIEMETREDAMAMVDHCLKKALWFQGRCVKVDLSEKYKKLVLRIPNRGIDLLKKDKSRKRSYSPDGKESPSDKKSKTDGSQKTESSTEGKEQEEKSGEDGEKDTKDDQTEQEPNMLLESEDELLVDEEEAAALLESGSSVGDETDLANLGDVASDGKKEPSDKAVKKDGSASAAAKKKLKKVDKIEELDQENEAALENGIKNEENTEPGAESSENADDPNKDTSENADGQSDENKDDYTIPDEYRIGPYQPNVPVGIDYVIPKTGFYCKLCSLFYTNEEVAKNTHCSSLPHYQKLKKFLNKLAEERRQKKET
# B1: HNRNPA0 178-304 (Homo sapiens, UniProt Q13151); sequence looked up; chain DIYSGGGGGGSRSSRGGRGGRGRGGGRDQNGLSKGGGGGYNSYGGYGGGGGGGYNAYGGGGGGSSYGGSDYGNGFGGFGSYSQHQSSYGPMKSGGGGGGGGSSWGGRSNSGPYRGGYGGGGGYGGSS
# B2: human alpha-actinin-1; sequence looked up; chain MDHYDSQQTNDYMQPEEDWDRDLLLDPAWEKQQRKTFTAWCNSHLRKAGTQIENIEEDFRDGLKLMLLLEVISGERLAKPERGKMRVHKISNVNKALDFIASKGVKLVSIGAEEIVDGNVKMTLGMIWTIILRFAIQDISVEETSAKEGLLLWCQRKTAPYKNVNIQNFHISWKDGLGFCALIHRHRPELIDYGKLRKDDPLTNLNTAFDVAEKYLDIPKMLDAEDIVGTARPDEKAIMTYVSSFYHAFSGAQKAETAANRICKVLAVNQENEQLMEDYEKLASDLLEWIRRTIPWLENRVPENTMHAMQQKLEDFRDYRRLHKPPKVQEKCQLEINFNTLQTKLRLSNRPAFMPSEGRMVSDINNAWGCLEQVEKGYEEWLLNEIRRLERLDHLAEKFRQKASIHEAWTDGKEAMLRQKDYETATLSEIKALLKKHEAFESDLAAHQDRVEQIAAIAQELNELDYYDSPSVNARCQKICDQWDNLGALTQKRREALERTEKLLETIDQLYLEYAKRAAPFNNWMEGAMEDLQDTFIVHTIEEIQGLTTAHEQFKATLPDADKERLAILGIHNEVSKIVQTYHVNMAGTNPYTTITPQEINGKWDHVRQLVPRRDQALTEEHARQQHNERLRKQFGAQANVIGPWIQTKMEEIGRISIEMHGTLEDQLSHLRQYEKSIVNYKPKIDQLEGDHQLIQEALIFDNKHTNYTMEHIRVGWEQLLTTIARTINEVENQILTRDAKGISQEQMNEFRASFNHFDRDHSGTLGPEEFKACLISLGYDIGNDPQGEAEFARIMSIVDPNRLGVVTFQAFIDFMSRETADTDTADQVMASFKILAGDKNYITMDELRRELPPDQAEYCIARMAPYTGPDSVPGALDYMSFSTALYGESDL
# B3: human CDK4; sequence looked up; chain ATSRYEPVAEIGVGAYGTVYKARDPHSGHFVALKSVRVPNGGGGGGGLPISTVREVALLRRLEAFEHPNVVRLMDVCATSRTDREIKVTLVFEHVDQDLRTYLDKAPPPGLPAETIKDLMRQFLRGLDFLHANCIVHRDLKPENILVTSGGTVKLADFGLARIYSYQMALTPVVVTLWYRAPEVLLQSTYATPVDMWSVGCIFAEMFRRKPLFCGNSEADQLGKIFDLIGLPPEDDWPRDVSLPRGAFPPRGPRPVQSVVPEMEESGAQLLLEMLTFNPHKRISAFRALQHSYLHKDEGNPE
# B4: S100A1 (Homo sapiens, UniProt P23297); chain MGSELETAMETLINVFHAHSGKEGDKYKLSKKELKELLQTELSGFLDAQKDVDAVDKVMKELDENGDGEVDFQEYVVLVAALTVACNNFFWENS
# B5: racE T25N/S192D (Dictyostelium discoideum, UniProt Q23862); sequence looked up; chain MSEDQGSGATRVKLVVVGDGAVGKNCLLICYAQNDFPVDYVPTVFENYTATRKRGNEDIKVHLWDTAGQEEYDRLRPLSYPGADVVLLCFSTISQSSYEAIRDKWAPEVNHYIPDVPSILVGTKIDLREQQHPDPNSGKFEPITADMGISMQKQIKAKKYLEVSAKTRQGLEEVFSAAIEIVLESRGMDKKDQDGSSSASGVPSGDKPTKGKAGKKKSGCIIL
# UniProt P02930, sequence (whole entry, unmodified, looked up): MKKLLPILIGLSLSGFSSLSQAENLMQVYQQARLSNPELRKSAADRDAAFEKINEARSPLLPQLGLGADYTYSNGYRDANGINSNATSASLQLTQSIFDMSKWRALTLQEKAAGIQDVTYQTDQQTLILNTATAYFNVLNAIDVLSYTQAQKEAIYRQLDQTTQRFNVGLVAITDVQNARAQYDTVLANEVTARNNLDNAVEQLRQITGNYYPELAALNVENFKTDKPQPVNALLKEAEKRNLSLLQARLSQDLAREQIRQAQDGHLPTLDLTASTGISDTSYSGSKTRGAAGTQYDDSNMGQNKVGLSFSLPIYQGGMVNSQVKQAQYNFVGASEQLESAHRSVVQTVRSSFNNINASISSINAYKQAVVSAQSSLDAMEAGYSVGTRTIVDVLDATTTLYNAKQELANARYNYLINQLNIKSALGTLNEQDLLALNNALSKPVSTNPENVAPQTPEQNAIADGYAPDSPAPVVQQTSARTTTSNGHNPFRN
# UniProt P08588, sequence (whole entry, looked up): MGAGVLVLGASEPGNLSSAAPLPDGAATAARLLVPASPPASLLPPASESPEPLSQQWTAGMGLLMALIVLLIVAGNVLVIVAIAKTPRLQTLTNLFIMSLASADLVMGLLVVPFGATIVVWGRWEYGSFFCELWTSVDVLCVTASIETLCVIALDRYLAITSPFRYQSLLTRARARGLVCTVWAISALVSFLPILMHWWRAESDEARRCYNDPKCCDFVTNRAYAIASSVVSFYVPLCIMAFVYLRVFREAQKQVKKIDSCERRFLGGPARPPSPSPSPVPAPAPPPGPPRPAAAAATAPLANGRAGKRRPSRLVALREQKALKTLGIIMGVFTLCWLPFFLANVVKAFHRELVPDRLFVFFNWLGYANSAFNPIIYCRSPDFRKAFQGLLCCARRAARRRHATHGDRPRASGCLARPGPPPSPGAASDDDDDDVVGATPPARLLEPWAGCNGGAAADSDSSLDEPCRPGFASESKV
# UniProt P0A9A6, sequence (whole entry, looked up): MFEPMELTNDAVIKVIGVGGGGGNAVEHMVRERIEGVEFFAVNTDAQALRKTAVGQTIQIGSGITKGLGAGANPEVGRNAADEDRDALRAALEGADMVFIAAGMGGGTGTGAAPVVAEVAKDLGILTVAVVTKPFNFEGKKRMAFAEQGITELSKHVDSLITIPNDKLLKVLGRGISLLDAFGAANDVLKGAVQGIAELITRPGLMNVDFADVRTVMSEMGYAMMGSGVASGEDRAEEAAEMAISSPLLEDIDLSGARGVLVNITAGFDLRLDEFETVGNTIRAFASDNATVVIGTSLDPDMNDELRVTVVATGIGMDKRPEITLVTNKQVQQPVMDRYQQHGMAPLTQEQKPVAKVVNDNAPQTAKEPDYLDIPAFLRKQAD
Substance,target or system,assay,system,setting,scale,quantity,result
"MATR3 (Homo sapiens, UniProt P43243)","T1, itself",RALS,,full-length human,,sphere-to-worm transition concentration,0.2 µM
GGGGGACUA (ssRNA),U2AF2,sequencing of bound RNA,RNA,motif only,,Kd,4.96 µM
B1 (HNRNPA0 178-304),itself,hydrogel trapping,,,,binding,binds
B2 (human alpha-actinin-1),PP6C (human),"co-immunoprecipitation, IP-MS",CYB5R4 knockout cells,concentration not given,relative to: CYB5R4 knockout over parental,log2 fold change,0.1
UUGGUUCUU (ssRNA),U2AF2,sequencing of bound RNA,RNA,motif only,,Kd,0.12 µM
B3 (human CDK4),CYB5R4 knockout human cells,"PP4 interaction, 3xFLAG-PP4C IP-MS",,concentration not given,relative to: CYB5R4 KO over parental,log2 fold change,-0.56
"TolC mature monomer (Escherichia coli, UniProt P02930)",itself,SDS-PAGE band densitometry,,,,Kd,29.7 µM
CAMK2D F368A (Homo sapiens),itself,mass photometry,,100 nM,higher = more dimers,dimers,10%
"EGFR fragment, 15N/13C-labeled (Homo sapiens)",itself,"NMR, 1H/15N-HSQC",bicelles,40 °C,,dimer:monomer ratio,2 dimer:monomer
"ADRB1 (Homo sapiens, UniProt P08588)",itself,BRET,,"wild type, no competitor",higher = weaker self-association,BRET50,0.36 GFP/Rluc ratio
B4 (S100A1),itself,AUC,,,,Kd,30 ± 6 µM
"AR (Homo sapiens, UniProt P10275)",itself,AUC,,,,Kd,> 14 µM
"nucleosome octamer with 601 DNA (Homo sapiens, UniProt P0C0S8)",itself,FRET,,unmodified nucleosome,,kon,4280 M⁻¹ s⁻¹
Pcdhgc3 EC1-EC4 (Mus musculus),itself,AUC,,wild type EC1-EC4,,Kd,115 µM
TOC34 ΔC (Pisum sativum),itself,fluorescence kinetics,,"22 °C, together with: mantGDP",,koff,0.00045 s⁻¹
"ftsZ (Escherichia coli, UniProt P0A9A6)",itself,filament formation,,approximate,,critical concentration,1 µM
B5 (racE T25N/S192D),itself,pull-down,,,,binding,binds
Aβ43 fibrils,itself,HPLC after sedimentation,,37 °C,,critical concentration,0.2 µM and 0.115 µM
clcA C85A/H234C/L194A (Escherichia coli),itself,SEC,,"12 days, 4 °C",,dimer decay half-life,26.4 h
Notch ankyrin domain (Drosophila),itself,AUC,,"self-association model, poor fit",,dimer Kd,61300 µM
TCR Vα Vα domain (Mus musculus),itself,NMR relaxation,,,,Kd,1000 ± 500 µM
"FLS2 monomeric (Arabidopsis thaliana, UniProt Q9FL28)",itself,"VA-TIRFM, single-particle tracking",,"in cells, together with: flg22",,association dwell time,11 s

# Repeated from above:
Substance,target or system,assay,system,setting,scale,quantity,result
"MATR3 (Homo sapiens, UniProt P43243)","T1, itself",RALS,,full-length human,,sphere-to-worm transition concentration,0.2 µM
